Measurements pooled from the literature.
Parts stem from different laboratories: compare values within a part only. “And” joins repeats or separate records; there may be more than shown.
UniProt Q9HAZ1, sequence (whole entry, looked up): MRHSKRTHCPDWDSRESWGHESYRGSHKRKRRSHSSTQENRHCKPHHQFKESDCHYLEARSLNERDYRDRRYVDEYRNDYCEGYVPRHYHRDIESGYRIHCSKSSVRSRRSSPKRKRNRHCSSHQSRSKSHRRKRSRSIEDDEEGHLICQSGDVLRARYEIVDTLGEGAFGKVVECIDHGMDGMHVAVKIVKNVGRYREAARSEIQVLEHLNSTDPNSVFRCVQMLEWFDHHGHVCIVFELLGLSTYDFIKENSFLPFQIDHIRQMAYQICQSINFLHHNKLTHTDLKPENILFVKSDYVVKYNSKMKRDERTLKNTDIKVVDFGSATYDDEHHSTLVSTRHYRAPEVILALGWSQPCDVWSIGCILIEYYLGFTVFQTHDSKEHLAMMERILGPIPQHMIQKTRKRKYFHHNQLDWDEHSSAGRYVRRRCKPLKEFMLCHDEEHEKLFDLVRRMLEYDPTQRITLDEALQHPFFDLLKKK
UniProt Q16539, sequence (whole entry, looked up): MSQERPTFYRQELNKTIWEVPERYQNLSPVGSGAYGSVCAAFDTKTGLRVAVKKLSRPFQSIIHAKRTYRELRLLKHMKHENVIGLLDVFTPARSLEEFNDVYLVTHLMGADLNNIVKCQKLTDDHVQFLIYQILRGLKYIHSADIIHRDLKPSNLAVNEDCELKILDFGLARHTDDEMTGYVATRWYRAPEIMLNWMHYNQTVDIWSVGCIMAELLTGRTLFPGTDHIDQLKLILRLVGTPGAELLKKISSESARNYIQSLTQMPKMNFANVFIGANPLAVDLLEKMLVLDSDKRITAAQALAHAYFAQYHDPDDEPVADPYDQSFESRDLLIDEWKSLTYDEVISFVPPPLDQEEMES
UniProt Q02750, sequence (whole entry, looked up): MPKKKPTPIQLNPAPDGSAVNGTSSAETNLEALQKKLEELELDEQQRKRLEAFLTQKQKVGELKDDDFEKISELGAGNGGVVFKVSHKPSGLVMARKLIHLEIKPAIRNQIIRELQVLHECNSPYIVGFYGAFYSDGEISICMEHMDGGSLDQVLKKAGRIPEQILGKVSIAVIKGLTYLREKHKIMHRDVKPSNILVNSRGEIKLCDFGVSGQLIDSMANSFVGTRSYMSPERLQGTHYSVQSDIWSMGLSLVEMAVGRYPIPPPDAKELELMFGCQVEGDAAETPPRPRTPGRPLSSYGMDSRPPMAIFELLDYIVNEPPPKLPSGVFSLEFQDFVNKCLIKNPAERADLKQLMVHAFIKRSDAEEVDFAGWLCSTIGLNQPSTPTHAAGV
UniProt O75676, sequence (whole entry, looked up): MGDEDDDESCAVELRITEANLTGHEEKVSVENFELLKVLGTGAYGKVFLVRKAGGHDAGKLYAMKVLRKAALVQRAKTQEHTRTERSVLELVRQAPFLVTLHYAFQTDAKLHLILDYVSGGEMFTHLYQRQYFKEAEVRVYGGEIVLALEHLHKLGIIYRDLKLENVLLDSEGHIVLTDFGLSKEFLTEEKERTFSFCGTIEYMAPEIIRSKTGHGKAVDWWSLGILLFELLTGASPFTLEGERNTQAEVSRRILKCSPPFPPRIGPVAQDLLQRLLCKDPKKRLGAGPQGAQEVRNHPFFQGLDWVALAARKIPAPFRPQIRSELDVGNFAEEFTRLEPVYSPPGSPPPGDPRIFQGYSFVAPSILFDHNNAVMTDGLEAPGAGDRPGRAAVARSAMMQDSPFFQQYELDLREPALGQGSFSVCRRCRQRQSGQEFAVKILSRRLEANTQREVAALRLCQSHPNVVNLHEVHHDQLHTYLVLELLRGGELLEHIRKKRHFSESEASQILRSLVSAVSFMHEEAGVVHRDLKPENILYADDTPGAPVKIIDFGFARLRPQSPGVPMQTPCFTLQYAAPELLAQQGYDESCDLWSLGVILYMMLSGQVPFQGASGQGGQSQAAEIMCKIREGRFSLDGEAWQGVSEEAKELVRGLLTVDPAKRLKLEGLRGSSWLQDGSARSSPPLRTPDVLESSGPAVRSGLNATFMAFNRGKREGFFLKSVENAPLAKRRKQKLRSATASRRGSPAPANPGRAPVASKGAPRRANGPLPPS
UniProt Q8N568, sequence (whole entry, looked up): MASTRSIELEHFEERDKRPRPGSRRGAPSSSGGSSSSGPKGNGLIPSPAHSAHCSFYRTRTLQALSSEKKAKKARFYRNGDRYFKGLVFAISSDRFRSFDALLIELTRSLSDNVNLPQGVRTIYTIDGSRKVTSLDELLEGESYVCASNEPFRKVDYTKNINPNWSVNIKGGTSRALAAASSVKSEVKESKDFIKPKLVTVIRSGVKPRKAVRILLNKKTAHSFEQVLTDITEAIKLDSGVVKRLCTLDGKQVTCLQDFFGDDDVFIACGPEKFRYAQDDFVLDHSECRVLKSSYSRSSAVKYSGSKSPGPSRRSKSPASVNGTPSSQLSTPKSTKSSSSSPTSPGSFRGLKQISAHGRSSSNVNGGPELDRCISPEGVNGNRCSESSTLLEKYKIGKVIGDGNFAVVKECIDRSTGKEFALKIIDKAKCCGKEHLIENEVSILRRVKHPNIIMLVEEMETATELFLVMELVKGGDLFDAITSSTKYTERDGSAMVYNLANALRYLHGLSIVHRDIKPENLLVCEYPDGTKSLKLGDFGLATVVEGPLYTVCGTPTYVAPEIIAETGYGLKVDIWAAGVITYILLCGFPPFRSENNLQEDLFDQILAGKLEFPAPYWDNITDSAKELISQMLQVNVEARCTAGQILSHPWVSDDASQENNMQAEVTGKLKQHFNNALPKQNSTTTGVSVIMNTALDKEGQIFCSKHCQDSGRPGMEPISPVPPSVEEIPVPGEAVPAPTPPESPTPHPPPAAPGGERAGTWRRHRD
UniProt Q16566, sequence (whole entry, looked up): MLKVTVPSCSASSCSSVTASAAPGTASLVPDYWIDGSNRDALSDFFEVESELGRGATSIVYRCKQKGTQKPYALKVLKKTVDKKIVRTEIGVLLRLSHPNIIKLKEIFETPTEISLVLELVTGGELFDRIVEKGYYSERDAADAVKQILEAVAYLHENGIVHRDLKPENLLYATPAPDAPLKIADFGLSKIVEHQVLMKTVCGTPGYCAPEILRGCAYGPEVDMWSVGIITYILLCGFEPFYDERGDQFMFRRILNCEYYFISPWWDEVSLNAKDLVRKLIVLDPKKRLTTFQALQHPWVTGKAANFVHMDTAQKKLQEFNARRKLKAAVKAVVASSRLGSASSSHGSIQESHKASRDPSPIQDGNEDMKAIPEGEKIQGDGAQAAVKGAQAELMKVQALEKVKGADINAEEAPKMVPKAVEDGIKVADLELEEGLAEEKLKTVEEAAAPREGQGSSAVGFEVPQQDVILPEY
UniProt Q9H4B4, sequence (whole entry, looked up): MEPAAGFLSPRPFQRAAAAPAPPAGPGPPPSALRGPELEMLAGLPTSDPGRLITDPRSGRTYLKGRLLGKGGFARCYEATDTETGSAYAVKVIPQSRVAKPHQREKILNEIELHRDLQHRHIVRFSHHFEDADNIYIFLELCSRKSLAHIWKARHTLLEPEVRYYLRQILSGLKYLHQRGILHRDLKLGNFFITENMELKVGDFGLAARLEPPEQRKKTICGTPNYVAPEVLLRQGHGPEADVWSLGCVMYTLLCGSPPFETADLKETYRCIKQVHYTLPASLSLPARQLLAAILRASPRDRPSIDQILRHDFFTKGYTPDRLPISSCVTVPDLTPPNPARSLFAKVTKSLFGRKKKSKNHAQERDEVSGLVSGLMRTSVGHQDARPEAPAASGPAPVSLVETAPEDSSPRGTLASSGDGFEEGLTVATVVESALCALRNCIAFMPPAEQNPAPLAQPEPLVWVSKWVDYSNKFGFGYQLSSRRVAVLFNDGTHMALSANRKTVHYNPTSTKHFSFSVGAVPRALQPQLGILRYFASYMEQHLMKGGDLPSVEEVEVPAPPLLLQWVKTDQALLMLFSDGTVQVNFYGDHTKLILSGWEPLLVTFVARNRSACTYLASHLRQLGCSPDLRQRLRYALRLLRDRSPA
UniProt P78362, sequence (whole entry, looked up): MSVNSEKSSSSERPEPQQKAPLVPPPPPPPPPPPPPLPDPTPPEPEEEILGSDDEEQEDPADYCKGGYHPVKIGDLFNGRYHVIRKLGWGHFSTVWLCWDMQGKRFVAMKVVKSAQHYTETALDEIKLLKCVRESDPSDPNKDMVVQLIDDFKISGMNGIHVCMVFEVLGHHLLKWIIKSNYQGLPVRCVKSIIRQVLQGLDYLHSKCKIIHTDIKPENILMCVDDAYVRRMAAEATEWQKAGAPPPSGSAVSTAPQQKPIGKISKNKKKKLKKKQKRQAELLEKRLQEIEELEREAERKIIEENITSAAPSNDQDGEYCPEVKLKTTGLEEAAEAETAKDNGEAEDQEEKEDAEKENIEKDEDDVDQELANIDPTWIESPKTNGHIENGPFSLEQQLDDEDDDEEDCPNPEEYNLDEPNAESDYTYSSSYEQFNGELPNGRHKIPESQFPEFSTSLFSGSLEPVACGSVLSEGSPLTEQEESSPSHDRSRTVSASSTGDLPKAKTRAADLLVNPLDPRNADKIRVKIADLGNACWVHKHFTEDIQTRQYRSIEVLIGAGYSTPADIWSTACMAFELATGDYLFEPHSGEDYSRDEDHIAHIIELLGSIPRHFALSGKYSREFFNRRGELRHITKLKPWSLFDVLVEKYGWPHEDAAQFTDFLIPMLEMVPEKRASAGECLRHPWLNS
UniProt P06493, sequence (whole entry, looked up): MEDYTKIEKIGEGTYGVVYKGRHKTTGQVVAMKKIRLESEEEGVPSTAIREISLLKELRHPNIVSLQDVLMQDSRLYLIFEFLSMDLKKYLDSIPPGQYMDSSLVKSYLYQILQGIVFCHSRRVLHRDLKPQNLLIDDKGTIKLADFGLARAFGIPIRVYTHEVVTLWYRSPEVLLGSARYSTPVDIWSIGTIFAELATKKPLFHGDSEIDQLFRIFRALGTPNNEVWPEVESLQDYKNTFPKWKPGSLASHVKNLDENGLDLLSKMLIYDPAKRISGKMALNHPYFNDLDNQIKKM

Set 1 — host: C57BL/6 IFN-γ knockout mouse female; medium: plasma; route: oral; dose: 10 mg/kg; time: 4 h
For `CCOC(=O)CN(C(=O)c1ccn2ncc(-c3ccc(C(=O)NC)cc3)c2c1)c1ccc(Cl)cc1`, the plasma concentration was 202 nM and 133 nM.
With `COC(=O)c1cc(Cl)ccc1N(C)C(=O)c1ccn2ncc(-c3ccc(C(N)=O)cc3)c2c1` the plasma concentration was 19 nM and 14 nM and 29 nM.
With `CN(C(=O)c1ccn2ncc(-c3ccc(C(N)=O)cc3)c2c1)c1ccc(C#N)cn1` the plasma concentration was 555 nM and 515 nM.
With `CNC(=O)c1ccc(-c2cnn3ccc(C(=O)N(C[C@H]4CCC(=O)O4)c4ccc(OC(F)(F)F)cc4)cc23)cc1` the plasma concentration was 2 nM and 4.58 nM and 2.61 nM.

Set 2 — read-out: cell-free assay; method: competition with immobilised ligand; concentration: 1 µM
Compound: O=C1CCc2cc(Nc3cc(OC4CCOCC4)c([N+](=O)[O-])cc3Cl)ccc2N1
For DDR1 (Homo sapiens, UniProt Q08345): remaining binding read 94%.
It gave 100% for remaining binding (SRPK2 (Homo sapiens, UniProt P78362)).
For PRKCD (Homo sapiens, UniProt Q05655): remaining binding read 100%.
It gave 93% for remaining binding (EPHA5 (Homo sapiens, UniProt P54756)).
For KIT (Homo sapiens, UniProt P10721, D816V): remaining binding read 100%.
For CIT (Homo sapiens, UniProt O14578): remaining binding read 100%.
The remaining binding was 83% (PIKFYVE (Homo sapiens, UniProt Q9Y2I7)).

Set 3 — host: mouse; medium: microsomes or S9; concentration: 2 µM; time: 0.5 h
`COc1cc(CN2CCC(NC(=O)NC3CCCCC3)CC2)cc(OC)c1OC` has a remaining compound of 81.9%.
The remaining compound of `CCCC(O)(CCC)CC(=O)Nc1cc(-c2n[nH]c(=O)[nH]2)ccc1C` is reported as 55.8%.
For `O=C(CN1C(=O)CC2(CCCC2)C1=O)Nc1cccc(-c2nc[nH]n2)c1`, the remaining compound was 44.2%.
The remaining compound of `CC1CCC(c2c[nH]c3ccc(Cl)cc23)C(=O)C1` (centres unmarked) is reported as 4.85%.
`CCNC(=O)c1cc(S(=O)(=O)NC(C(=O)O)C(C)C)cs1` (centres unmarked) gave a remaining compound of greater than 99%.
With `CCOc1cc(CNCCO)cc(Br)c1OC(C)C` the remaining compound was 0%.
`Cc1cc(O)nc(SCC(=O)C23CC4CC(CC(C4)C2)C3)c1C#N` gave a remaining compound of 15%.

Set 4 — read-out: enzyme activity; action: inhibitor; concentration: 0.5 µM; relative to: control
Structure (SMILES): COc1cc(Nc2c(C#N)cnc3cc(OCCCN4CCN(C)CC4)c(OC)cc23)c(Cl)cc1Cl
The remaining activity was 96.9% (Cyclin-dependent kinase 1, with cyclin A (CDK1, Homo sapiens, UniProt P06493)).
The remaining activity was 40.3% (Myosin-IIIb (MYO3B, Homo sapiens, UniProt Q8WXR4)).
It gave 76.6% for remaining activity (CLK4 (Homo sapiens, UniProt Q9HAZ1)).
PNCK (Homo sapiens, UniProt Q6P2M8) — remaining activity: 109%.
For GRK4 (Homo sapiens, UniProt P32298): remaining activity read 92.4%.
The remaining activity was 104% (AKT2 (Homo sapiens, UniProt P31751)).
It gave 85.9% for remaining activity (NEK3 (Homo sapiens, UniProt P51956)).
It gave 101% for remaining activity (MAPK11 (Homo sapiens, UniProt Q15759)).
MAP2K1 (Homo sapiens, UniProt Q02750) — remaining activity: 65.3%.
For DCLK2 (Homo sapiens, UniProt Q8N568): remaining activity read 98.4%.
ROCK1 (Homo sapiens, UniProt Q13464) — remaining activity: 105%.
It gave 90.7% for remaining activity (CAMK4 (Homo sapiens, UniProt Q16566)).
The remaining activity was 101% (RPS6KA4 (Homo sapiens, UniProt O75676)).
DDR2 (Homo sapiens, UniProt Q16832) — remaining activity: 105%.
The remaining activity was 1.21% (MINK1 (Homo sapiens, UniProt Q8N4C8)).
Cyclin-dependent kinase 9, with cyclin K (CDK9, Homo sapiens, UniProt P50750) — remaining activity: 102%.
It gave 88.2% for remaining activity (CDC42BPB (Homo sapiens, UniProt Q9Y5S2)).
The remaining activity was 98.5% (PLK3 (Homo sapiens, UniProt Q9H4B4)).
TXK (Homo sapiens, UniProt P42681) — remaining activity: 27.5%.
For MARK2 (Homo sapiens, UniProt Q7KZI7): remaining activity read 99.9%.
For PRKG2 (Homo sapiens, UniProt Q13237): remaining activity read 109%.
The remaining activity was 88.6% (MAPK14 (Homo sapiens, UniProt Q16539)).

Set 5 — read-out: acetyl-histone H4 peptide binding; method: AlphaScreen displacement; concentration: 50 µM
Target: Bromodomain-containing protein 4, BD1 (BRD4, Homo sapiens, UniProt O60885)
With `O=C(O)CCCC(=O)NNC(=O)c1ccc(Cl)cc1` the inhibition was -4.45%.
`CC(=O)Nc1ccc(C=C(C#N)c2nc3ccccc3s2)cc1` has an inhibition of 7.75%.
`COc1cccc(-c2cc(=O)c3ccccc3o2)c1N` gave an inhibition of -2.7%.
With `COc1ccc(-c2csc3nc[nH]c(=O)c23)cc1` the inhibition was 11.8%.
With `N#CCCc1ccc2c(c1)-c1[nH]c3ccc([N+](=O)[O-])cc3c1CC(=O)N2` the inhibition was 15.5%.
With `Br.Br.CCOc1ccc(Nc2nc(-c3c(C)nc4ccccn34)cs2)cc1` the inhibition was 85.1%.
With `COc1ccc(Cl)cc1NC(=O)Nc1cc(C)nc2ccccc12` the inhibition was 1.95%.
With `OC1CCCN(Cc2c(-c3ccco3)[nH]c3ncccc23)C1` (centres unmarked) the inhibition was -0.2%.
With `COc1cccc(Nc2ncc3c(n2)CCN(C(=O)OC(C)(C)C)C3)c1` the inhibition was 32.2%.
For `COc1ccccc1OCC(=O)NNC(=O)c1ccc(Cl)cc1`, the inhibition was 3.9%.
